Measured values gathered from unrelated publications.
Each numbered part is a random draw from the data of one study; scales do not carry over between parts.

Sample 1 — method: RNA Bind-n-Seq; molecule type: RNA; medium: in vitro; tested at: 1 µM; setting: whole 134-nt RNA, ends assumed; added: 150 mM KCl; relative to: input library; reading: higher = stronger binding
Target: Ras GTPase-activating protein-binding protein 1, RRM domain (G3BP1, Homo sapiens, UniProt Q13283)
UniProt Q13283, sequence (whole entry, looked up): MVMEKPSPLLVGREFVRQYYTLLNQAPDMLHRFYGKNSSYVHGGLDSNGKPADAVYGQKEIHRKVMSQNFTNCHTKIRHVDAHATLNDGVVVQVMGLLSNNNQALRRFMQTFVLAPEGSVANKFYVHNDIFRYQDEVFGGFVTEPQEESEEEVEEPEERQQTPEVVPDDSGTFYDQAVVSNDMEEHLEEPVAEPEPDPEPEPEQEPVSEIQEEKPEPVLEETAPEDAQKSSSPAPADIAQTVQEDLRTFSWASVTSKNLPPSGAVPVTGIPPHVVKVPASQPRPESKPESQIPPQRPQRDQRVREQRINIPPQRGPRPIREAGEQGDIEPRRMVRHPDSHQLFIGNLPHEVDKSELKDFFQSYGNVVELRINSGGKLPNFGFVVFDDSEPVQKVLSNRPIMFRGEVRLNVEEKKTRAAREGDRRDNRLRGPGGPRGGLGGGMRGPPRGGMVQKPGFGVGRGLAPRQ
Strand	log2 enrichment
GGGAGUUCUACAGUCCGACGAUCAGUCCUGUGCUACACAUCGUAUGUACCGAAUCAAAUUUUUUUAAAUUUAAAUUUAAAAAAGUAUUAUGUUACGCCGUUCGGAUCUGCACUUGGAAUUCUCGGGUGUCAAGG	-0.913
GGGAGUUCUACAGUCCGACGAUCCAAGUCCUGUGCUACACAUCGUAUGUACCGAAUCGGGUGGGAGGGUUUUUUUGGGAAAGUAUUAUGUUACGCCGUUCGGAUCUGCACUUCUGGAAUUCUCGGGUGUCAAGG	0.695
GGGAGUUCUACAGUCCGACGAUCUCAAGUCCUGUGCUACACAUCGUAUGUACCGAAUCGGUGGUUUUUUUGGAAAGGAAAGUAUUAUGUUACGCCGUUCGGAUCUGCACUUCCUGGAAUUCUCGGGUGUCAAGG	-0.178
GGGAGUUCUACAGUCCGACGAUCCCUCAAGUCCUGUGCUACACAUCGUAUGUACCGAAUCGGUUGGGGUUGGUUGGAAAGUAUUAUGUUACGCCGUUCGGAUCUGCACUUCCAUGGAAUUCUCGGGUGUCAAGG	-0.286
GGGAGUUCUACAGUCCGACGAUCCUGUGCUACACAUCGUAUGUACCGAAUCGGGGUUUGGGGUUUUUUUGGGGUUUUUUUGGGGAAAGUAUUAUGUUACGCCGUUCGGAUCUGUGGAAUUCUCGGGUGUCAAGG	1.14
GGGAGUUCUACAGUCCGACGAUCAAGUCCUGUGCUACACAUCGUAUGUACCGAAUCGGUUUUUUUGGAAAAAGGAAAGGAAAGUAUUAUGUUACGCCGUUCGGAUCUGCACUUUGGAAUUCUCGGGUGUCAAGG	-0.379
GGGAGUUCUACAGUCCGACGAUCUCCUGUGCUACACAUCGUAUGUACCGAAUCGGAAAAAAAGGAAAAAAAGGUUUUUUUGGAAAGUAUUAUGUUACGCCGUUCGGAUCUGCAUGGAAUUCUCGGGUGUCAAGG	0.00729
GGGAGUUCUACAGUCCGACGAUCUCCUGUGCUACACAUCGUAUGUACCGAAUCGGGCCCCCCGGGGCCCCCCGGCCCCCCGGGAAAGUAUUAUGUUACGCCGUUCGGAUCUGCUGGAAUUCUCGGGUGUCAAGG	-0.429
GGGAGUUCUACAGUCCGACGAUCGCAGGAAGUAAAAACAAAUGGAAAUGCUUCGGAUAGUGGCAGGGGUGGGGGUUGCUAAGGAAAGGGUGAGAUGGGAGUGGGUAAAGAGUUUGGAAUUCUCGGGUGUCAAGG	1.42

Sample 2 — method: RNA Bind-n-Seq; molecule type: RNA; medium: in vitro; tested at: 365 nM; relative to: no-protein control; reading: higher = stronger binding
Target: RNA binding protein fox-1 homolog 2, RRM domain, GST-SBP tag (RBFOX2, Homo sapiens, UniProt O43251-10, residues 100-194)
Setting: natural RNA segment, single round, ends assumed
Residues (chain): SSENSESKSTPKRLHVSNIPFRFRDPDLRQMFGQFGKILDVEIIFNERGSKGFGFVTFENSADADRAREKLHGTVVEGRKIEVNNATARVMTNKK
Strand	RBNS enrichment (R)
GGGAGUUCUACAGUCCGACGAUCUACCCUAACCCAUCACGCCCUGGUGAAGCCCCCAAGGCCUGCUGCUUUGGGGUGUGGCCUGUGACUGUGUUUCCCAGGUGGGGACCAGAAGAUGUCUGAGGUCCUCCUGAUGGAAUUCUCGGGUGCCAA	0.229
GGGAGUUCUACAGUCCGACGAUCAACACGUAUGAAGUUUAUGCUGAUGCAAAGAACUUGGGUUUUUAUGUUAAUAUAAAGUGUUGUUUUAGCAUGUGGCCAGAUGAUGCUCUGUCAUCUUUAGAAAGUGAGAUUGGAAUUCUCGGGUGCCAA	8.19
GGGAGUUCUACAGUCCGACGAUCGUCUUCAAUGCCACCUUCCACAUCUGGCACAGCGGACAGUUUGGCACAAUCAAUAAUUUCAGACUGGGUCGCUUGCCCAGUGUUCCUGUGGAGUGGAAUGAAAUCAAUGCUGGAAUUCUCGGGUGCCAA	0.419
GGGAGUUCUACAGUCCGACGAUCACAGGAGCAGCCCACCCAGCAGAAAUACAAUCCGAGCUACAAAGCAUGGGAAAAAGAGACUCUUUUAGGAUCAGAUCUGUGAGCACGUUGGCGAGGAAAAACAAAACAAAUGGAAUUCUCGGGUGCCAA	2.07
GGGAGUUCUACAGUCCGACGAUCGAAUGACUGGCUCCCCUGCCCUUUUAGACAAAGGCUGCUGCUUUCAGCCUUCUCCAAGGGAGAGCCUGGCUGGCUAACAGAGGGAGCCUGAGUCAGUCACAUCUGGCAGCUGGAAUUCUCGGGUGCCAA	0.302
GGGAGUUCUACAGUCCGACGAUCUGACUGCUUGGCUACGUACAGUAUAAGUAUUUCCUUUCUGUGACAUUGUGACAUACAAUUUAAACACUCAUUGGGCUGCUGUGCUGUGUAAAGAAAGAGGGACUGCAGUGUGGAAUUCUCGGGUGCCAA	0.45
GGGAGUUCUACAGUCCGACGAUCCUGACAUUUUUUUCAGUUAUGUGAAUGAAUGGAAACCAACAGCUGCUGCAAACACUGUUUUUCCAAGAAGGCUACACUCAGAACCUAACCAUUGCCAACCAUUUCAGUAUUGGAAUUCUCGGGUGCCAA	0.51
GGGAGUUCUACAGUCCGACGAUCUGGGCCUAAGCCUUUCUGCAUUACACUUGAAGCCUUCAGUCAUUUCCUACCACUUAUUACAACAGUGAGGACUGGAUUCUUGAUGUCUUAAUUUCUCAUUUAUUUGUCUAUGGAAUUCUCGGGUGCCAA	0.499

Sample 3 — method: protein-binding microarray; molecule type: double-stranded DNA, one strand shown; medium: in vitro; tested at: 250 nM; setting: 60-bp whole probe; added: salmon DNA 0.4 mg/ml; relative to: random background probes; reading: higher = stronger binding; all sequences stand within: GCCTAGCAC … GTCTTGATTCGCTTGACGCTGCTG
Target: Interferon regulatory factor 7, full length, phosphomimetic (IRF7, Homo sapiens, UniProt Q92985, residues 1-503, S101K/S471D/S472D/S475D/S476D/S477D/S483D/S484D/S487D)
Construct (chain): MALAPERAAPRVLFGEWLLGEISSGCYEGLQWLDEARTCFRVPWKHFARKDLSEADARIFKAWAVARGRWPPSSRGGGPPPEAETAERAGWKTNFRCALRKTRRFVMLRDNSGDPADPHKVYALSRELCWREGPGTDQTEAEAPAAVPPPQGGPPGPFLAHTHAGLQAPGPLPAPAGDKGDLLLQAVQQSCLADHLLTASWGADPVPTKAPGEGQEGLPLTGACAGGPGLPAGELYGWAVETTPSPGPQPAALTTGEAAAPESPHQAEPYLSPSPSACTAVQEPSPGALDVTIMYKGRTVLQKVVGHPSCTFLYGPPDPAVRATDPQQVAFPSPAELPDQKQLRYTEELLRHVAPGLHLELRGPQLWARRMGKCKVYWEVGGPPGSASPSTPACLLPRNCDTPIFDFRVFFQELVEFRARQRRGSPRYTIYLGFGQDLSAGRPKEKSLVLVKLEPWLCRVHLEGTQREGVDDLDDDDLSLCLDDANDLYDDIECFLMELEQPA
Strand	log fluorescence [z-score]
TTTCATTTTTTTTCATCATTGTGCTAG	2.14
TTAGATTCCAGTTTCGATTCGTGCTAG	13.1
TCAATTTTCTTTAACTCACTGTGCTAG	0.437
CATCATTTTTCCCTCTGGAAGTGCTAG	0.775
TCAGGTCTCCTTCTCCTTTAGTGCTAG	0.492
GACGATTTTAGTTTCGAGACGTGCTAG	5.55
TTAGAACCGAGTATCGATTAGTGCTAG	0.99
TCCTCTTTCACTGCTCCCCACGTGCTA	1.53
TCATCGTAAGCAAAAATACTGTGCTAG	0.181
TTAGGACTGCTAGTGCTTTAGTGCTAG	-0.698
GACGGTTTCATACTGCTGACGTGCTAG	1.85
GATGTTTTGAGTTTTCCTTCGTGCTAG	0.665
TTAGGACTGGCCTTTCGGTTAGTGCTA	-0.28
GACGGTTTCGGTCTCGGGAAGTGCTAG	8.93
GTCGGTATCGGTCTCGGGACGTGCTAG	1.29
TCATTATTAGTGACTCAGACTGTGCTA	0.746
GAAGGACTGCTTATCCTGACGTGCTAG	-0.0787
TGAAAATTCTAATTAGAATTGTGCTAG	-0.261
TTAGGTTTTGGTTCCGGTTAGTGCTAG	4.04

Sample 4 — method: protein binding microarray; molecule type: double-stranded DNA, one strand shown; medium: in vitro; tested at: not given; relative to: not given; reading: higher = stronger binding
Target: Histone acetyltransferase KAT6A, winged helix 1, GST fusion (KAT6A, Homo sapiens, UniProt Q92794, residues 1-85)
Setting: 8-mer, flanks averaged, mean of 2 arrays, mostly near background
Residues (chain): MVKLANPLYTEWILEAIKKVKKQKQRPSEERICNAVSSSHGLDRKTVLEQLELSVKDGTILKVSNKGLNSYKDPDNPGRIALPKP
Strand	E-score
ATCCAATC	-0.161
CCCCATAG	-0.249
CTAGATCA	-0.155
CCTACGGC	0.346
TCTCCACA	-0.28
ATAAATAT	-0.0787
GAGACTCC	-0.0188
ATAATCAA	0.0524
GTGTATTA	-0.0841
CATTCCCG	0.266
CTAGATTA	-0.0408
AACACGTG	-0.0923
ACGACTAG	-0.109
AGGTTTAG	-0.198
ACACAATA	-0.183
GATTCAGA	-0.22
ACATTGCC	-0.0453
ATCGAGGA	-0.145
CGCATCGA	0.233
CATTGTAC	0.0402
ATACTCTC	-0.224
ATACAAAT	-0.138
CGGACTAC	0.201
GGACATGA	0.0932

Some of these lines once more (sample 1):
Strand	log2 enrichment
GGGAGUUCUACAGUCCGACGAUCAGUCCUGUGCUACACAUCGUAUGUACCGAAUCAAAUUUUUUUAAAUUUAAAUUUAAAAAAGUAUUAUGUUACGCCGUUCGGAUCUGCACUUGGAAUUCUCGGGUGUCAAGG	-0.913
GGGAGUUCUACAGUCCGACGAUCCAAGUCCUGUGCUACACAUCGUAUGUACCGAAUCGGGUGGGAGGGUUUUUUUGGGAAAGUAUUAUGUUACGCCGUUCGGAUCUGCACUUCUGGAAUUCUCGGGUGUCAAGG	0.695
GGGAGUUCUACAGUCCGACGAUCUCAAGUCCUGUGCUACACAUCGUAUGUACCGAAUCGGUGGUUUUUUUGGAAAGGAAAGUAUUAUGUUACGCCGUUCGGAUCUGCACUUCCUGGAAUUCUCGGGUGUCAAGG	-0.178
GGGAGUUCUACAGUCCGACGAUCCCUCAAGUCCUGUGCUACACAUCGUAUGUACCGAAUCGGUUGGGGUUGGUUGGAAAGUAUUAUGUUACGCCGUUCGGAUCUGCACUUCCAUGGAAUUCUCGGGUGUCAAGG	-0.286
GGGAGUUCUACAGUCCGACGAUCCUGUGCUACACAUCGUAUGUACCGAAUCGGGGUUUGGGGUUUUUUUGGGGUUUUUUUGGGGAAAGUAUUAUGUUACGCCGUUCGGAUCUGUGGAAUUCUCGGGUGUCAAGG	1.14
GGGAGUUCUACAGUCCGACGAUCAAGUCCUGUGCUACACAUCGUAUGUACCGAAUCGGUUUUUUUGGAAAAAGGAAAGGAAAGUAUUAUGUUACGCCGUUCGGAUCUGCACUUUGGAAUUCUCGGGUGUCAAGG	-0.379
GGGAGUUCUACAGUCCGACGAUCUCCUGUGCUACACAUCGUAUGUACCGAAUCGGAAAAAAAGGAAAAAAAGGUUUUUUUGGAAAGUAUUAUGUUACGCCGUUCGGAUCUGCAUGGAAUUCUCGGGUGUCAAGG	0.00729
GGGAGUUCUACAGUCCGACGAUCUCCUGUGCUACACAUCGUAUGUACCGAAUCGGGCCCCCCGGGGCCCCCCGGCCCCCCGGGAAAGUAUUAUGUUACGCCGUUCGGAUCUGCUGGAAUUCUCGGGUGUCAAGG	-0.429
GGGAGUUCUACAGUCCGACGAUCGCAGGAAGUAAAAACAAAUGGAAAUGCUUCGGAUAGUGGCAGGGGUGGGGGUUGCUAAGGAAAGGGUGAGAUGGGAGUGGGUAAAGAGUUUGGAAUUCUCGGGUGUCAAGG	1.42
